Published values pooled from the literature.
A part holds a random share of what one study measured. Positions count from the first letter of the parent shown.

Block 1 — target: human cyclin A2; read-out: peptide binding; method: competitive growth sequencing; molecule type: peptide; organism: Saccharomyces cerevisiae; strain: cyclin A2-Cln2 fusion strain; tested at: concentration not given; notes: peptide tiling library; relative to: unfused Cln2 strain; direction: direction not given
| Sequence | binding score |
| --- | --- |
| PFSENVSAVQKLDFSD | 1.01 |
| PYSPALPAFGLSYTPV | 0.0313 |
| EMARYKRKLLINDFGR | -0.873 |
| EVTKVRANAFNQELLS | -0.0569 |
| SPPRGRRLFPPGPAGF | -0.18 |
| SSPSVRAQAFVTVVKT | -0.143 |
| NEGVSNAVRRSLYIRD | 0.406 |
| GPPAKRRLELGESGHQ | 2.55 |
| PYSPLLPPFGLSYTPV | 2.61 |
| AEHPKPSACRNLFGPV | 3.01 |
| GFGFLLFICKLTF | 1.43 |

Block 2 — method: DHFR PCA, deep sequencing; sample: yeast; together with: (+)-ABA 0.11 µM; relative to: wild-type fitted maximum; direction: higher = stronger binding
Target: ABI1, truncated, D143A, DHFR fusion (Arabidopsis thaliana)
Notes: methotrexate growth selection, single substitutions
Starting sequence: PYL1, truncated, DHFR fusion (Arabidopsis thaliana); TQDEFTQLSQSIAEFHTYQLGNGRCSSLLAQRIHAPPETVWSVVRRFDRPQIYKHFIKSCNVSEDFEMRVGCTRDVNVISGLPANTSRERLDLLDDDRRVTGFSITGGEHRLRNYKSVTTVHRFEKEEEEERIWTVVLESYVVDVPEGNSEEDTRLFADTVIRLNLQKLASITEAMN
| Change | relative binding score |
| --- | --- |
| H55L | 27.3% |
| V136N | -4.65% |
| T73R | 1.49% |
| L94V | -1.7% |
| A170H | -0.939% |
| Q167N | 16.5% |
| F124R | 0.745% |
| P50K | -2.9% |
| E4G | 7.86% |
| T6W | 29% |

Block 3 — target: ATF1, bZIP domain (human); method: DHFR protein complementation; sample: yeast; relative to: wild-type JUN-FOS pair; direction: higher = stronger binding
Notes: single substitutions, most at no-binding floor
Starting sequence: JUN, bZIP domain (human); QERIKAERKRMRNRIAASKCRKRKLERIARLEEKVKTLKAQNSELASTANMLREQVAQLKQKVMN; partner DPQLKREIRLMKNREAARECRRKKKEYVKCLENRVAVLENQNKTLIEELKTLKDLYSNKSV
| Change | binding fitness |
| --- | --- |
| E33A | -1.5 natural log |
| L38C | -1.55 natural log |
| A49M | -1.6 natural log |
| A46G | -1.52 natural log |
| I28N | -1.39 natural log |
| N42A | -1.51 natural log |
| T37R | -1.46 natural log |
| I28S | -1.52 natural log |

Mixed results
| Substance | target | assay | system | conditions | scale | quantity | value |
| --- | --- | --- | --- | --- | --- | --- | --- |
| PhoQ, residues 284 288 289 292 302 303 SIHLQL | PhoP, residues 12 14 15 18 19 SQCLL (Escherichia coli, UniProt P23836) | Sort-seq, item: YFP reporter | E. coli | PhoQ-PhoP variant library, together with: 10 µM Mg2+ | relative to: high Mg2+ state, higher = stronger signaling | fold induction | 14.5 |

For quick reference, copied from above (block 2):
| Change | relative binding score |
| --- | --- |
| H55L | 27.3% |
| V136N | -4.65% |
| T73R | 1.49% |
